Measurements from different studies.
Protocols differ between the studies behind these lines.
Aspartate aminotransferase: Aspartate aminotransferase (Streptococcus pneumoniae, UniProt Q8DNN5)
saeR full length assumed: saeR full length assumed (Staphylococcus aureus, UniProt Q2FIT4)
UniProt Q2FIT4, sequence (whole entry, looked up): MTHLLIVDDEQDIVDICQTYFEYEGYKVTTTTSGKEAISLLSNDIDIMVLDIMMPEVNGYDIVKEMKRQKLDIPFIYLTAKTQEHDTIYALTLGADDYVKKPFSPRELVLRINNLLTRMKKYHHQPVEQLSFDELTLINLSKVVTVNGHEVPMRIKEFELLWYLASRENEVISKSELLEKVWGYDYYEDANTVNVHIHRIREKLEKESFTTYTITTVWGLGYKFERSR
cssR 1-198: cssR 1-198 (Corynebacterium glutamicum)
T1: cssR 1-198 (Corynebacterium glutamicum); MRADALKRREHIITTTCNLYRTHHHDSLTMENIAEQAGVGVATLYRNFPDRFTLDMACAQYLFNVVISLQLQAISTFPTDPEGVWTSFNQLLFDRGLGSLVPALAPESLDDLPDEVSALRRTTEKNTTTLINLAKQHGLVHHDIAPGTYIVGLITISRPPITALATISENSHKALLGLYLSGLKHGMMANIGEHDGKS
T2: rgg3 1-283 (Streptococcus pyogenes); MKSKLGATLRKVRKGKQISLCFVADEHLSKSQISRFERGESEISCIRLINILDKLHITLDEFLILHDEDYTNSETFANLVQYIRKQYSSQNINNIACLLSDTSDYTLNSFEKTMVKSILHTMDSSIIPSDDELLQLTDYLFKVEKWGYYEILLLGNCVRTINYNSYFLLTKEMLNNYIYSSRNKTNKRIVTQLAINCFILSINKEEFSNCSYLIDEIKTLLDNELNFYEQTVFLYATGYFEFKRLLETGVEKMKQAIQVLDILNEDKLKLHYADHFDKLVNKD
T3: basR 1-222 (Escherichia coli); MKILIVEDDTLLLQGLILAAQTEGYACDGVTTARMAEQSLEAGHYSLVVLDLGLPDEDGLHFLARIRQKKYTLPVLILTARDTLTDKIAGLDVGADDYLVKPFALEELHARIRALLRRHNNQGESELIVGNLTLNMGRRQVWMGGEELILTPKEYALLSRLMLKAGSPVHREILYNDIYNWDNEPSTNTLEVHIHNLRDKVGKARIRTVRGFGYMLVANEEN
UniProt P33768, sequence (whole entry, looked up): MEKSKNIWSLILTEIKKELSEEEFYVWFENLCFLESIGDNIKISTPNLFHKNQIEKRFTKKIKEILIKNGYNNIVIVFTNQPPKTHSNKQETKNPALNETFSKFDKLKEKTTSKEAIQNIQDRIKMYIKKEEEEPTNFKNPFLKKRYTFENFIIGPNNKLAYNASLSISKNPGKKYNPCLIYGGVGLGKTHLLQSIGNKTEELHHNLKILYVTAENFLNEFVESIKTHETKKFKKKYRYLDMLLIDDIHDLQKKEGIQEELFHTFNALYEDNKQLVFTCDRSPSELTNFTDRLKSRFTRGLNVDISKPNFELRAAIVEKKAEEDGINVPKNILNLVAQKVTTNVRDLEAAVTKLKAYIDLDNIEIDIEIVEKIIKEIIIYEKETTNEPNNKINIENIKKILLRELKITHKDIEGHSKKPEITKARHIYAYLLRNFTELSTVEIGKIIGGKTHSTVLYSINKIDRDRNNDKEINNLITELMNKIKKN
UniProt Q45493, sequence (whole entry, looked up): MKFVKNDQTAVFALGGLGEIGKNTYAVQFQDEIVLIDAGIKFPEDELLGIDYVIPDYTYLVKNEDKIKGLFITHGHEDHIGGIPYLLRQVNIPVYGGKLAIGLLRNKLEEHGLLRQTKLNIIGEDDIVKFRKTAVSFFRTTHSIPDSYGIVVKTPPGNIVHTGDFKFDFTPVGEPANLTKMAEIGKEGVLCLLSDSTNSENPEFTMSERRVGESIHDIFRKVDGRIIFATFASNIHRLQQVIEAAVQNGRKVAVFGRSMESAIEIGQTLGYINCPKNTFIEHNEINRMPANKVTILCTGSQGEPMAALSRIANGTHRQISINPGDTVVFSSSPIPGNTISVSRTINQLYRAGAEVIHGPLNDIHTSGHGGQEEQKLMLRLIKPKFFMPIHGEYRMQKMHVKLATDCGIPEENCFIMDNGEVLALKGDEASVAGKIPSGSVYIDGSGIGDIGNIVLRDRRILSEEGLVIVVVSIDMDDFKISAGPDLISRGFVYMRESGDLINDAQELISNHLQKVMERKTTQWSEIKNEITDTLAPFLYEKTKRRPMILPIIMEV
UniProt P60386, sequence (whole entry, looked up): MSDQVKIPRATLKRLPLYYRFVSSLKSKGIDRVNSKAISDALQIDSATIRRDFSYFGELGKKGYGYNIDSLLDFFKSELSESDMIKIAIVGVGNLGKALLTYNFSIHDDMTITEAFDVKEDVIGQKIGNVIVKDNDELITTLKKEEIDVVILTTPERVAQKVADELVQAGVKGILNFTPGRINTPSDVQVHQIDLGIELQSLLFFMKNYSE
UniProt O26057, sequence (whole entry, looked up): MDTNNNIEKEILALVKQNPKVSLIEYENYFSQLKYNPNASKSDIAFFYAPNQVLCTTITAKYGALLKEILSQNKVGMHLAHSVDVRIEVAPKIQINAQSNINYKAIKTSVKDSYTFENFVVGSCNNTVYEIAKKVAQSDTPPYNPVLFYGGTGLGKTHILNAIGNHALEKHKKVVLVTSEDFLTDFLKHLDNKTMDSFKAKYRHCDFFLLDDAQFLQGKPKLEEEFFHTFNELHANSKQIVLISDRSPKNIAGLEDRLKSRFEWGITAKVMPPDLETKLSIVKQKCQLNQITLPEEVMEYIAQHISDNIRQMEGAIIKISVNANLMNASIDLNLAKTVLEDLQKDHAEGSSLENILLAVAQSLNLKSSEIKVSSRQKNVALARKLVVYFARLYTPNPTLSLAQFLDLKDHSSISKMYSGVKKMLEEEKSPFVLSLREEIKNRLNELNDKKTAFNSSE

Strand = TTCTAATTGCCTATGACTTTTTTTAGATAATAAATCTCTCATGAATATCTTTCTCTCTTTATAAATTATCGGATTAAACCTCTTGCAATTATACCACAAAGAATAGGTATAGCATGATATAACGACTTTTCCTAAAATCTTTTATTTCGTATAATAACACTACGGAGACAATATATAAACAATTTTCTTATTTTACCGTCTATTGAGGGCGTGAATACAGAATC (dsDNA); target = Aspartate aminotransferase; test = hydroxyl radical footprinting; test system = double-stranded DNA, one strand shown; binding = binds
Strand = CAAATTATTCTTTCTTCAATATTAGTTAAGCGATATTTAAACGAAGTTAAGAATTAGTTAATGGCATATTATTTGCCTTCATTTTAAACTTAACTTATC (dsDNA); target = saeR full length assumed; test = EMSA; test system = double-stranded DNA, one strand shown; binding = binds
Strand = TTGTCATTATTAAAAACCTCGCTTTTAAAAGATTGAAAAGTAAATGAGTGAAATTAAAGATTATGTACATTAAAATCACGCCACAATTTAATTGTGAAAAATATCACAAATATATTATAACACTAAATTTTCCAAAATTCAAAAGTGTGTTTTATTGCAGAAAACTTATAACATGTGCACAAGTTATAGCGAATTGCAAACGGATTACTTTAGTCTTTTTAAAACATGAAGTATAATTTGTATAGTAATAAATATAAAAATTGGAGGCTATGTTCAATGAGCAATA (dsDNA); target = rex 1-211 (Staphylococcus aureus, UniProt P60386); test = EMSA; test system = double-stranded DNA, one strand shown; binding = binds
Strand = ATAGTAAAAAAACACATTTGTAGATATTTTAAACTCGGTAAATCTTTTAATAAATATTTAATTTTATTAAAAGTTAAAAAGGTTTAATATAAAAATGTAA (dsDNA); target = saeR full length assumed; test = EMSA; test system = double-stranded DNA, one strand shown; binding = binds
Strand = GGCAAUACAUUACAGUGCAUUUCUUUAAUGAGAAAUGCAUAAAAUAAAAAAGACCGAGGUGCUACCAACACCCCGGCUCUGUACAAAAAGUUGCCCAUCAAAGGGCUUGCUCGAUGUGGUUCUAGGUAGGCCUAUCCCUUCAGGUUCUGAGGCUCAAGGGAGGUC (structured RNA); target = rnjA full length assumed (Bacillus subtilis, UniProt Q45493); test = EMSA; binding = binds
Strand = GCTAGCTAAAAATAACATTACAATAAATCTTATTGACATAAATTGATTTTTTTTATATAAGTAAATTATTGTATTGCGTCC (dsDNA); target = dnaA full length assumed (Borreliella burgdorferi, UniProt P33768); test = competition; test system = double-stranded DNA, one strand shown; conditions = 1.4 µM; binding = no binding
Strand = CCATTGAGAGACATTTCAAACTCCTTTGAAGGTTTGTGATCCCAGACACTTCGTCGGGGCGTGATACCAATGAAAACTCATAACGTTGAAAATGTCAACTATTAATTTTGAAAACTTACATCGTTCGCTTGACGCACAGAATGCATGCATGTTCAAATGATTGAAGATCGAAACTATTTTTCAGCCAGTTCACATGG (dsDNA (Corynebacterium glutamicum)); target = T1, cssR 1-198 (Corynebacterium glutamicum); test = EMSA; test system = double-stranded DNA, one strand shown; binding = no binding
Strand = TAAAAAAGATGATAACACCTTCTACACCTCCATATCACAAAAATTATAACATTATTTTGACATAAATACTACATTTGTAATATACTACAAATGTAGTCTT (dsDNA); target = saeR full length assumed; test = EMSA; test system = double-stranded DNA, one strand shown; binding = no binding
Strand = ATATTGATCAGTCGGATACACGATATCTCTGACTCCCCGCGCTCAAAACGAGAGATTTGTGATTTTGAAAGGTGTTCATCTGCCACGAAGCACAGACTAATTTGCTTTCCTTTTCGAACTTTTCTAAGTGTGGCACCAAGTTTTGATTTCATATTTTCCCACTTTCCCAACAAAAATCAATTCAGTTTTTTTTTATTGTACAATAAATAAAAACTGAAAGGAAGTCCACTT (dsDNA); target = T2, rgg3 1-283 (Streptococcus pyogenes); test = EMSA; test system = double-stranded DNA, one strand shown; binding = binds
Strand = CTAGGGATCCTAAAGGGGTATTAAACGCACTTCTAATAACGATTTTATAGCGCTTCAAAGATATAACACTAATTCATTTTAAATAATAATTAGTTAATGAACGCTTCTGTTAATCTTAGTAAATCAAAACATTGCTACAATTACATCCAACCTTGATTTCGTTATGTCTTCAAGGAAAAACACTTTAAGAATAGGAGCTGCAGCGATGC (dsDNA (Helicobacter pylori); blunt); target = mua 1-153 (Helicobacter pylori, UniProt O25538); test = EMSA; test system = double-stranded DNA, one strand shown; conditions = added: EDTA 1 mM; binding = no binding
Strand = CCACACAAGTTTTTGTACTTGACTACATTTAAGCTAAATTAATTGTACTTATTTAAAAAAAAAATTGCTAGCTAAAAATAACATTACAATAAATCTTATTGACATAAATTGATTTTTTTTATATAAGTAAATTATTG (dsDNA); target = dnaA full length assumed (Borreliella burgdorferi, UniProt P33768); test = EMSA; test system = double-stranded DNA, one strand shown; conditions = 0.35-1.4 µM; binding = binds
Strand = TAGATGAAGAAGTTGTTTGCCAATTATTTGTGTCTTACTTTCAAAAAATGTTTTTCATAGATGAAAGTCTCTTTATGAAATGCGTAAAAAAGGATAGTTATGTTGAAAAATCTTACCATCTATTGAGTGATTTTATTGATCAGATTTCAGTCAAGTATCAGATTGAAATTGAGAATAAGGATAATCTGATTTGGCATCTGCATAATACCGCACATCTGTATCGTCAAGAGTTGTTTACTGAGTTTATTTTATTTGATCAAAAAGGGAATACAATCAGGAACT (dsDNA); target = Aspartate aminotransferase; test = EMSA; test system = double-stranded DNA, one strand shown; binding = binds
Strand = GAAGTTATTGGGTGACATGGGATCTAACCCTTCTTGAATAGTGAACTGAACAACATTATCTAGATCACATTCTGAATCATGATTCATAAATGAACAAGGGTTCAGATTTTACAATACCCCCATTCCACCCCCTTATATTTAAGTCACCGCAGATCAGCTAAGGTTTTCCCTATGCCCACGCCTTCGCAGCACAAGGACGCTTCAACAGCACAAACCGACAAC (dsDNA (Corynebacterium glutamicum)); target = T1, cssR 1-198 (Corynebacterium glutamicum); test = EMSA; test system = double-stranded DNA, one strand shown; binding = no binding
Strand = GTATCGACATGTGAATAATATCACAAAAACAGAGAATATATATTTAACTATTTATTAAATGATTTTGTTAATATTATTAAATACTTTATCCTCTTTAAAA (dsDNA); target = saeR full length assumed; test = EMSA; test system = double-stranded DNA, one strand shown; binding = binds
Strand = AGATGCTCAGCAGAATCCCCCACATCCTGAAGGAGGTGTATTCAGACAGGCATCCCACCTGACTTCGAATGATGATTATTCATCACTATAGAGAGCATTGATTCTAAGTGTCATATGAAAGTACCAATTGATATATATCAAACAAAATAACCCTGATTAATGAATTATTACGTTTATCATG (dsDNA (Escherichia coli)); target = T3, basR 1-222 (Escherichia coli); test = EMSA; test system = double-stranded DNA, one strand shown; binding = binds
Strand = CAAATTCTTTAATTGTTGCTATTATATAATTTTTAAAATTAAAAATATAATCTTTAGACTTGAATTTGATTCTGTATTCACGCCCTCAATAGACGGTAAAATAAGAAAATTGTTTATATATTGTCTCCGTAGTGTTATTATACGAAATAAAAGATTTTAGGAAAAGTCGTTATATCATGCTATACCTATTCTTTGTGGTATAATTGCAAGAGGTTTAATCCG (dsDNA); target = Aspartate aminotransferase; test = DNase I footprinting; test system = double-stranded DNA, one strand shown; conditions = added: CaCl2 1 mM, MgCl2 10 mM; binding = binds
Strand = TCACAAATCAATAACCATGTTTTAAATTTTTCAAGCTACAATCATTAATTATTTATTAACTCAAATATTTAATAATCAGTTAATGGCATTCTGTTAATT (dsDNA); target = saeR full length assumed; test = EMSA; test system = double-stranded DNA, one strand shown; binding = binds
Strand = CCAGCGCAAAGCAGCATGAAAATCCTTTTTTCGCATCCATTAGCTTATTATAAAGCAAGCATTATAGACAAACCCTTAAAAGAAACACCTTAATTTTAAGGCTTCATTCACATTTCATTCACATGTTATTCCTTTTTCATTCACCACTTATTCACGCTATAATAACGCCATGGATACCAACAACAATATTG (dsDNA (Helicobacter pylori); blunt ends); target = dnaA full length assumed (Helicobacter pylori, UniProt O26057); test = SPR; test system = double-stranded DNA, one strand shown; binding = binds

Excerpt of the above:
Strand = ATATTGATCAGTCGGATACACGATATCTCTGACTCCCCGCGCTCAAAACGAGAGATTTGTGATTTTGAAAGGTGTTCATCTGCCACGAAGCACAGACTAATTTGCTTTCCTTTTCGAACTTTTCTAAGTGTGGCACCAAGTTTTGATTTCATATTTTCCCACTTTCCCAACAAAAATCAATTCAGTTTTTTTTTATTGTACAATAAATAAAAACTGAAAGGAAGTCCACTT (dsDNA); target = T2, rgg3 1-283 (Streptococcus pyogenes); test = EMSA; test system = double-stranded DNA, one strand shown; binding = binds
Strand = CTAGGGATCCTAAAGGGGTATTAAACGCACTTCTAATAACGATTTTATAGCGCTTCAAAGATATAACACTAATTCATTTTAAATAATAATTAGTTAATGAACGCTTCTGTTAATCTTAGTAAATCAAAACATTGCTACAATTACATCCAACCTTGATTTCGTTATGTCTTCAAGGAAAAACACTTTAAGAATAGGAGCTGCAGCGATGC (dsDNA (Helicobacter pylori); blunt); target = mua 1-153 (Helicobacter pylori, UniProt O25538); test = EMSA; test system = double-stranded DNA, one strand shown; conditions = added: EDTA 1 mM; binding = no binding
